Experimental data pooled from the literature.
A part holds a random share of what one study measured. Positions count from the first letter of the parent shown.

Sample 1 — target: CCNE2, cyclin fold, Cln2 fusion (human); technique: yeast growth competition, sequencing; sample: yeast; setting: weak parent motif; reference: not given; direction: higher = stronger binding
Parent: CDC6 docking peptide (human); TLKGRRLVFDNQL
| Variant | normalised enrichment score |
| --- | --- |
| L13E | 0.4 |
| Q12P | 0.208 |
| Q12H | 0.337 |
| L2W | 0.658 |
| F9D | -0.495 |
| R6N | 0.228 |
| F9Q | -0.18 |
| L2E | 0.244 |
| V8D | 0.805 |
| N11W | 0.978 |

Sample 2 — technique: DHFR PCA, deep sequencing; sample: yeast; added: (+)-ABA 0.39 µM; reference: wild-type fitted maximum; direction: higher = stronger binding
Target: ABI1, truncated, D143A, DHFR fusion (Arabidopsis thaliana)
Setting: methotrexate growth selection, single substitutions
Parent: PYL1, truncated, DHFR fusion (Arabidopsis thaliana); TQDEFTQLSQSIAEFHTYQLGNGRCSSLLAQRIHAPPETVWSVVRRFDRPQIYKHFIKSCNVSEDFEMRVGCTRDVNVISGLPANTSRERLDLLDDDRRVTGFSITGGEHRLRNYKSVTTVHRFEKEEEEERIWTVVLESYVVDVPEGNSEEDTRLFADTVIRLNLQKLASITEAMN; partner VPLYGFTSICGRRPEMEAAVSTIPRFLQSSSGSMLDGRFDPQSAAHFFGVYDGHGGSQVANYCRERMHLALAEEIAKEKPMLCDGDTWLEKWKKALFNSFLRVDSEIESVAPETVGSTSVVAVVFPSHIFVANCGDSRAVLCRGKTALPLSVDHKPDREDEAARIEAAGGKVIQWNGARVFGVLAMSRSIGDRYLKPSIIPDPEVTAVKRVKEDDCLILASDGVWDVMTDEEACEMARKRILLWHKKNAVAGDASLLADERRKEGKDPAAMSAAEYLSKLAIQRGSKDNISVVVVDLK
| Variant | relative binding score [%] |
| --- | --- |
| D95V | 13.5 |
| G81I | -3.57 |
| V70F | -12 |
| S9Q | 62 |
| P83Y | -10.2 |
| G148C | 9.29 |

Sample 3 — technique: RNA Bind-n-Seq; molecule type: RNA; sample: in vitro; concentration: not given; reference: input RNA pool; direction: higher = stronger binding
Target: RING finger protein unkempt homolog, zinc fingers 1-6, GST-SBP tag (UNK, Homo sapiens, UniProt Q9C0B0, residues 30-357)
Sequence of UniProt Q9C0B0 (30-357, looked up): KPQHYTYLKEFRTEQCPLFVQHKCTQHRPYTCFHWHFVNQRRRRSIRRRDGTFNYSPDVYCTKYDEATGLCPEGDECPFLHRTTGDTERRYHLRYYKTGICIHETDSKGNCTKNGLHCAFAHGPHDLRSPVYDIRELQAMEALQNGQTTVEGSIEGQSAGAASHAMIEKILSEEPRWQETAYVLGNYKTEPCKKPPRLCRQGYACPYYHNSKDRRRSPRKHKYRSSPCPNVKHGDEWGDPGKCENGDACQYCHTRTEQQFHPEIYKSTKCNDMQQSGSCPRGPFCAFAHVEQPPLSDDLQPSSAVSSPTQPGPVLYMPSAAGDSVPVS
Setting: RNA with constant flanks, human and mouse sites, ends assumed
Constant ends, left off below: GGGAGUUCUACAGUCCGACGAUC … CAACAGAGGAUUGAGCAUCA
| Strand | bound/input enrichment |
| --- | --- |
| GUGAGCUUGCGGGGGAUUGGCAGUCCCAGCACAGAUGCCAGUGCCAGUGCCGUCCACGGCAAUUUCGCCUUCGAGGGCAUUGGAGAUGAGGAUCUGUAAUCUCAGCUGCCUGGAUGUCUG | 0.104 ratio |
| UCUCUUGGGAUGUAAUACAGAUAACACUUUUUAUUUGAUUUGGGGAAGGUAUGCGAGACCCCUUCUUUCUUUUGUUUUCCUCAGAGUUUGCUGGAGGUCUUGUGCUGUGUUGUUUCCAAC | 0.229 ratio |
| AUUGAACCUGUACAACCUCCUCCAUCUUCUGCACCUUUGGUUGCUGAUCAAAGACCCAUAACAUUUACAUCUUCAAAAAAUGAAGAACUACAAGGAAACGAUCCCAAAAUUCUUCCUUCA | 0.213 ratio |
| CCAGUAACUUCUACAGCACCUCCCAUUGUGAGCGGAGUCAGCAGCAGUGCCAGUGGACCAAGCACUGCUAAUUACAGCUCCUUUUCCAGUGCAUCAAUGCCGCAGAUCCCAGUUGCGUCA | 0.164 ratio |
| GCAAAGAUGGUAUGUUCAGAUUCCCCAUUUGCCGGGGCACUUAGAAAACGACUGCUUGUACUCCAGCGUGUCUUUUAUGCACUUUCUAAUAAAUACCAUGACAAAGGCAAGGUGAAGCAG | 0.271 ratio |
| UGUGAAAUCAGUAGGUUAUCUUUAAUCUUUACACUACAUGCAGAUCCAUAGUAUCCUUUGUAGUGUUGUAAAUACUUUUGCUUUGAAAACUUUUUCAUUGUCCUAAAUCACCCUGACUCU | 0.571 ratio |
| ACCCCCAUGGUCCCUAUCUGUAGUCAGACUGUGCUGGCUGGGUCUCUGCAGGGAACCUGUUAUAGCAGGUUUGUGGUGACCUUGGAGGGAGGGUCUGCCAGCAGAGAAUACAGUGCGCUU | 0.151 ratio |
| UAUGCAGAGCGUUAUGAGACAUGGGAAGAUGAUCAAAGCCCACCCUACCAUUAUAAUACCCAUUAUUCAACAGCAACAUCUACUUUAUCCUGGCUUGUUCGAAUUGAACCUUUCACAACC | 0.253 ratio |

Single results of other studies
| Substance | target | test | test system | setting | how to read | measurement | result |
| --- | --- | --- | --- | --- | --- | --- | --- |
| PhoQ, residues 284 288 289 292 302 303 GTAMQF | PhoP, residues 12 14 15 18 19 LHSVW (Escherichia coli, UniProt P23836) | Sort-seq, refers to: YFP reporter | E. coli | PhoQ-PhoP variant library, added: 10 µM Mg2+ | reference: high Mg2+ state, higher = stronger signaling | fold induction | 15.8 |
